Measured values gathered from unrelated publications.
Each numbered part is a random draw from the data of one study; scales do not carry over between parts.

Block 1
Target: Interferon regulatory factor 3, full length, phosphomimetic (IRF3, Homo sapiens, UniProt Q14653, residues 1-427, S386D/S396D/S398D/S402D/T404D/S405D)
Chain of UniProt Q14653 (whole entry, unmodified, looked up): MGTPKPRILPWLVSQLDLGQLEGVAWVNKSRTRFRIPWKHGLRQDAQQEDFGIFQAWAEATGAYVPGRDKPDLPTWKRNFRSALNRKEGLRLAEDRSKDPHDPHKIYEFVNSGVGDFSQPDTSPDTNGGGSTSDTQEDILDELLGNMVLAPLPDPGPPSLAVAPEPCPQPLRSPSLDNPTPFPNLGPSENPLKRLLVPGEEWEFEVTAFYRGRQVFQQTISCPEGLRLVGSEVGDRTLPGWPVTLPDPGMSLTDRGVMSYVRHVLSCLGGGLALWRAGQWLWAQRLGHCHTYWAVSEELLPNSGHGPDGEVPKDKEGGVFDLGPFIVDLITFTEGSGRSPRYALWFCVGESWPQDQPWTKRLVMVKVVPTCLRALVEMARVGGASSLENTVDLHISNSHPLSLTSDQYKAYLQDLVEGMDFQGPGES
Technique: protein-binding microarray
Form: double-stranded DNA, one strand shown
Sample: in vitro
Concentration: 2540 nM top
Notes: 60-bp whole probe
Together with: salmon DNA 0.4 mg/ml
Relative to: random background probes
Direction: higher = stronger binding
Shared flanks, not repeated: GCCTAGCAC … GTCTTGATTCGCTTGACGCTGCTG
For `GACGGTTTCGGTAGCGGGACGTGCTAG`, “fitted relative affinity” read 5.65 z-score.
For `TGACCTGCTCCAAACACCTCGTGCTAG`, “fitted relative affinity” read 0.452 z-score.
`ACGTCTTCATGTTTTTTTCTGTGCTAG` — result for “fitted relative affinity”: 0.377 z-score.
`GACGGATTGGGTCTCGGGACGTGCTAG`: “fitted relative affinity” -0.175 z-score.
`GACGGTATCCTGCTCCTGACGTGCTAG`: “fitted relative affinity” 1.38 z-score.
`TTAGGACTGGACTTTCGTTTAGTGCTA`: “fitted relative affinity” 0.287 z-score.

Block 2
Target: Sal-like protein 4, full length isoform B (SALL4, Homo sapiens, UniProt Q9UJQ4-2, residues 1-616)
Technique: universal PBM
Form: double-stranded DNA, one strand shown
Sample: in vitro
Concentration: not given
Notes: 8-mer, flanks averaged, mean of replicates
Direction: higher = stronger binding
Residues (chain): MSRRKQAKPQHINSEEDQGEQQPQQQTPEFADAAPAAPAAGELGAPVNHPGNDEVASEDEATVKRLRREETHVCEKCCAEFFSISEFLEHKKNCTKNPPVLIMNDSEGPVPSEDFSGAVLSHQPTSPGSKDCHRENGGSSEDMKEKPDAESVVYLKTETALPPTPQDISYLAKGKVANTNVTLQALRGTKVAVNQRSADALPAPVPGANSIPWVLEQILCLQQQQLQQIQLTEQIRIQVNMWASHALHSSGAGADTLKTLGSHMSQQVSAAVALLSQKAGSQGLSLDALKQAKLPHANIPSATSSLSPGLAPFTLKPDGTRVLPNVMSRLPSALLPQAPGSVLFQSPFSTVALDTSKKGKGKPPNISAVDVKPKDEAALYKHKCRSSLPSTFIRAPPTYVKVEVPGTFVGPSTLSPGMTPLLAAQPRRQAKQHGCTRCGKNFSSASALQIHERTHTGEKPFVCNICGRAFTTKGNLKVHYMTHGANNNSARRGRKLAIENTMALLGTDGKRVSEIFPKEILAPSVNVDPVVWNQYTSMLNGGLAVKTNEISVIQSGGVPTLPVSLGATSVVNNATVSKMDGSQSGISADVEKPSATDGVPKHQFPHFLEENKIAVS
For `CGGCAGTA`, the E-score was -0.16.
The E-score of `GAATGACA` is reported as 0.136.
For `CCCGGCAC`, the E-score was -0.353.
With `TGGCTCAA` the E-score was -0.125.

Block 3
Target: Histone acetyltransferase KAT6A, winged helix 2, GST fusion (KAT6A, Homo sapiens, UniProt Q92794, residues 85-181)
Technique: protein binding microarray
Form: double-stranded DNA, one strand shown
Sample: in vitro
Concentration: not given
Notes: 8-mer, flanks averaged, mean of 2 arrays, mostly near background
Relative to: not given
Direction: higher = stronger binding
Target sequence (chain): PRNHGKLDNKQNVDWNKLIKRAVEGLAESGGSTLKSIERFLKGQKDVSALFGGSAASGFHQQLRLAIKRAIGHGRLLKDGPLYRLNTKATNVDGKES
The E-score of `AATAGGGG` is reported as -0.125.
For `AGCTCTCA`, the E-score was 0.126.
With `CGGCAGAG` the E-score was 0.0645.
For `CTGTCCAA`, the E-score was -0.0685.
`ATATTTTC` gave an E-score of 0.0664.
`AACAATCA` gave an E-score of 0.072.
`CCTTGGTA` gave an E-score of 0.0695.

Other studies, line by line
With `PhoQ, residues 284 288 289 292 302 303 SCEHLI` the fold induction was 7.19 (PhoP, residues 12 14 15 18 19 NQFFI (Escherichia coli, UniProt P23836); Sort-seq, measured: YFP reporter; E. coli; PhoQ-PhoP variant library, together with: 10 µM Mg2+; relative to: high Mg2+ state, higher = stronger signaling).
